# Measurements gathered from unrelated publications.
# Numbered parts are unrelated; each lists some results of a single study. Substitutions count along the parent as printed.

# Series 1 — technique: protein binding microarray; form: double-stranded DNA, one strand shown; medium: in vitro; tested at: not given; reference: not given; reading: higher = stronger binding
# Target: Histone acetyltransferase KAT6A, both winged helices, GST fusion (KAT6A, Homo sapiens, UniProt Q92794, residues 1-181)
# Notes: 8-mer, flanks averaged, mean of 2 arrays, mostly near background
# Residues (chain): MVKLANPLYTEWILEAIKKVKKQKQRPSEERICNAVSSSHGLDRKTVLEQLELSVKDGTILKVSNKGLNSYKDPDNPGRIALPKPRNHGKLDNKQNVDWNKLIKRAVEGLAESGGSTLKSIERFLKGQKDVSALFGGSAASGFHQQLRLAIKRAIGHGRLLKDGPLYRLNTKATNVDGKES
Strand,E-score
ATCTGGAA,-0.0563
CTCACCCC,-0.108
GTAGCTAA,-0.0489
GGTAGCAC,0.0428
GATCTAAC,-0.0496

# Series 2 — technique: universal PBM; form: double-stranded DNA, one strand shown; medium: in vitro; tested at: 600 nM; reading: higher = stronger binding
# Target: Sal-like protein 4, full length isoform A (SALL4, Homo sapiens, UniProt Q9UJQ4, residues 1-1053)
# Chain of UniProt Q9UJQ4 (whole entry, looked up): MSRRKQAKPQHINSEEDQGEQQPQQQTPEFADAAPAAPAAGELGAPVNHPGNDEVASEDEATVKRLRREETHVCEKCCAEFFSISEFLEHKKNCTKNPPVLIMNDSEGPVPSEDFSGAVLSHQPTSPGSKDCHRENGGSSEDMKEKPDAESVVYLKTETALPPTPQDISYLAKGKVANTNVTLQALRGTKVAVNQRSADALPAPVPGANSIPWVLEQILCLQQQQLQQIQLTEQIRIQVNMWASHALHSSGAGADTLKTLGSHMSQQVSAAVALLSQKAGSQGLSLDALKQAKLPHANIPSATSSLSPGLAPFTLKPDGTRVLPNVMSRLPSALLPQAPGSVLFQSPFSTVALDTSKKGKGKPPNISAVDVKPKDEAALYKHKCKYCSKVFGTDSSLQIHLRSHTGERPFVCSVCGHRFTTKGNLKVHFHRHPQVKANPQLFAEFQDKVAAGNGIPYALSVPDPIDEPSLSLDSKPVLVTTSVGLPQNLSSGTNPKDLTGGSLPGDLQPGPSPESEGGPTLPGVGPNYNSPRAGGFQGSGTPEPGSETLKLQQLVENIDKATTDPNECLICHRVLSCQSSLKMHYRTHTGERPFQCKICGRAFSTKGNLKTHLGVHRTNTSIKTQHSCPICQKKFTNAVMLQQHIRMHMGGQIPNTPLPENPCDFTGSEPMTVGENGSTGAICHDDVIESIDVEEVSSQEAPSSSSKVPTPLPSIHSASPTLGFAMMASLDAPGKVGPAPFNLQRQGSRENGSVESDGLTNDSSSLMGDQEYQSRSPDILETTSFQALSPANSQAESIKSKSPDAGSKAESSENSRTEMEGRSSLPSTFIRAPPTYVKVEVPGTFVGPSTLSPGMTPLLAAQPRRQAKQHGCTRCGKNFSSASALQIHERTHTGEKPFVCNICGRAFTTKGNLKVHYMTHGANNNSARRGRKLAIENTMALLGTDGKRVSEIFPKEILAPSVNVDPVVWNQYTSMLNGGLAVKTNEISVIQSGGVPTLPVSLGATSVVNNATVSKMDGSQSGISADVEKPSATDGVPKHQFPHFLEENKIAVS
# Notes: 8-mer, flanks averaged, mean of replicates
Strand,E-score
AAACCCCC,-0.259
CTCTTATA,0.301
ACCTAGAG,-0.0624
CAGTTTAA,0.0902
GTTCAGGA,-0.0398

# Series 3 — target: CCNA2, cyclin fold, Cln2 fusion (human); technique: yeast growth competition, sequencing; medium: yeast; notes: strong parent motif; reference: not given; reading: higher = stronger binding
# Parent: ORC1 docking peptide (human); PRARKRLELGNLG
Change,normalised enrichment score
PRNRKRLELGNLG [A3N],2
PTARKRLELGNLG [R2T],5.44
PRARKRLELINLG [G10I],3.11
PRRRKRLELGNLG [A3R],0.915
PQARKRLELGNLG [R2Q],3.81

# Single results of other studies
Substance,target,test,system,conditions,how to read,quantity,value
"PhoQ, residues 284 288 289 292 302 303 SQSLSM","PhoP, residues 12 14 15 18 19 GQAIL (Escherichia coli, UniProt P23836)","Sort-seq, measured: YFP reporter",E. coli,"PhoQ-PhoP variant library, with: 10 µM Mg2+","reference: high Mg2+ state, higher = stronger signaling",fold induction,19.1

# Some of these lines once more (series 1):
Strand,E-score
GGTAGCAC,0.0428
